Measured values from different studies.
Numbered parts are unrelated; each lists some results of a single study.

Series 1 — method: competition protein-binding microarray; molecule type: double-stranded DNA, one strand shown; sample: in vitro; tested at: 2 µM; with: Cbf1 competitor, 0.05 µM; direction: higher = stronger binding; quantity: fluorescence intensity
Target: Phosphate system positive regulatory protein PHO4, full length, GST-tagged (PHO4, Saccharomyces cerevisiae, UniProt P07270, residues 1-312)
Notes: whole 60-bp probe, lowest competitor level
Construct (chain): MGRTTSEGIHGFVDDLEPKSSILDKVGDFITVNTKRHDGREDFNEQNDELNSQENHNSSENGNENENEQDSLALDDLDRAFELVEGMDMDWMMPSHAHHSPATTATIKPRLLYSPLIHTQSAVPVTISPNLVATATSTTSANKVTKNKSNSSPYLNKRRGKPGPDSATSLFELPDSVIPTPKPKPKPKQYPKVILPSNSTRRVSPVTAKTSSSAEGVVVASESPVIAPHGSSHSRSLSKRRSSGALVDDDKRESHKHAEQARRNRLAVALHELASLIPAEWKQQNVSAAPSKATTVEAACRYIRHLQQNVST
AGTAACTACGTAAATCACCTGCTACCTCTCTGTTCTGTCTTGATTCGCTTGACGCTGCTG: 4850 a.u.
CTCAGGTCGATGAGTCTCGTGGCCGCAAAGCTGATGGTCTTGATTCGCTTGACGCTGCTG: 9840 a.u.
TTTCCGCGATGCAGCACCGTGCGGAGAGATCCCAATGTCTTGATTCGCTTGACGCTGCTG: 8750 a.u.
GAAGATGACTGCTTCCTCGTGTTGATCCATTATTTTGTCTTGATTCGCTTGACGCTGCTG: 9830 a.u.

Series 2 — method: universal PBM; molecule type: double-stranded DNA, one strand shown; sample: in vitro; tested at: not given; direction: higher = stronger binding; quantity: E-score
Target: Sal-like protein 4, full length isoform B (SALL4, Homo sapiens, UniProt Q9UJQ4-2, residues 1-616)
Notes: 8-mer, flanks averaged, mean of replicates
Residues (chain): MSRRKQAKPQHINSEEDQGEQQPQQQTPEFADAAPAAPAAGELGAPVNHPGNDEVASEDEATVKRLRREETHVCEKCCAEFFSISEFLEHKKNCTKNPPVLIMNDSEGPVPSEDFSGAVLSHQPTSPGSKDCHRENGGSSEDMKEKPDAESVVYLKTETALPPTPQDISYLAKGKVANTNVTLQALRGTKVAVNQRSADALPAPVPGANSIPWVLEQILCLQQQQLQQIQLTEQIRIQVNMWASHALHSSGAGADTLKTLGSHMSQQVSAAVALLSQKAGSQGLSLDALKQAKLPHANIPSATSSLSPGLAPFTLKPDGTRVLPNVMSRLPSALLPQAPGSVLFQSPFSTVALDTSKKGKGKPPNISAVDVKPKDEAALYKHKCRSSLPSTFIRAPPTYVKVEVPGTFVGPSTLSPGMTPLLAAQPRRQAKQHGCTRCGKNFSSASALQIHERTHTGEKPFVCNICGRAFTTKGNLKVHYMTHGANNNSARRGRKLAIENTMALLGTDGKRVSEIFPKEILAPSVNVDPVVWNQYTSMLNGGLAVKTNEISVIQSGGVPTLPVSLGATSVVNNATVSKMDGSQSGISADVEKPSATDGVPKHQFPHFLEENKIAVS
CCTACGAA: -0.013
CACGGTGC: -0.282
CTCGTGAC: -0.174
CCCATCGA: -0.0779
ACGGACCG: -0.311
CGAGAACA: -0.137

Series 3 — method: RNA Bind-n-Seq; molecule type: RNA; sample: in vitro; tested at: 1 µM; notes: whole 134-nt RNA, ends assumed; with: 150 mM KCl; reference: input library; direction: higher = stronger binding; quantity: log2 enrichment
Target: Ras GTPase-activating protein-binding protein 1, C-terminal RGG region (G3BP1, Homo sapiens, UniProt Q13283)
Chain of UniProt Q13283 (whole entry, looked up): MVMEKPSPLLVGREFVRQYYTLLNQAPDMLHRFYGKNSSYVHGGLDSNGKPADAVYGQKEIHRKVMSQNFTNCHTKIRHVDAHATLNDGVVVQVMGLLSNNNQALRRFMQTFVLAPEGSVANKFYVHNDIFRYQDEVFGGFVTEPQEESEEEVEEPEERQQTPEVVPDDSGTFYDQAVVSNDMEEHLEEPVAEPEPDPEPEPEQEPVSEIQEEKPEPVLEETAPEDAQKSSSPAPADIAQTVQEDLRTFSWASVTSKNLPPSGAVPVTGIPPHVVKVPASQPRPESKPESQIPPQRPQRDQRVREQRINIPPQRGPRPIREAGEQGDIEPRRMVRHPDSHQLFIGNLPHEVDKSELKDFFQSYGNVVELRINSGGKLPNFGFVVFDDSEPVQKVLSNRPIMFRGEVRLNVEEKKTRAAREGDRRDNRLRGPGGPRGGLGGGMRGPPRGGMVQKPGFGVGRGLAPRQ
All sequences stand within: GGGAGUUCUACAGUCCGACGAUC … UGGAAUUCUCGGGUGUCAAGG
GCAGGAAGUAAAAACAAAUGGAAAUGCUUCGGAUAGUGGCAGGGGUGGGGGUUGCUAAGGAUAGGGUGGGAUGGGAGUGGGUAAAGAGUU: 2.09
UCCUCAAGUCCUGUGCUACACAUCGUAUGUACCGAAUCGGGCGGCGGCGGGGAAAGUAUUAUGUUACGCCGUUCGGAUCUGCACUUCCAG: -0.469
GCAGGAAGUAAAAACAAAUGGAAAUGCUUCGGAUAGUGGCAGGGGUGGGGGUUGCUAAGGCAAGGGUGGGAUGGGAGUGGGUAAAGAGUU: 1.61
UGGACAUGGAUUUUCAAGCCUACUUAGCUUCCUCUAGUGAAGAUGAAGAGGAGAUAGAAGAGGAGCUACAAGGUAUUGUUAAUCUUUCAG: -1.41
CCUGUGCUACACAUCGUAUGUACCGAAUCGGGGUUUGGGGAAAAAAAGGGGUUUUUGGGGAAAGUAUUAUGUUACGCCGUUCGGAUCUGC: 1.24

Further values, each from its own experiment
PhoQ, residues 284 288 289 292 302 303 SNSSNI — fold induction (PhoP, residues 12 14 15 18 19 LHHVQ (Escherichia coli, UniProt P23836); Sort-seq, measured: YFP reporter; E. coli; PhoQ-PhoP variant library, with: 10 µM Mg2+; reference: high Mg2+ state, higher = stronger signaling): 10
